Assay results gathered from unrelated publications.
A part holds a random share of what one study measured.

Study 1 — technique: universal PBM; form: double-stranded DNA, one strand shown; sample: in vitro; tested at: not given; direction: higher = stronger binding
Target: Sal-like protein 4, full length isoform B (SALL4, Homo sapiens, UniProt Q9UJQ4-2, residues 1-616)
Notes: 8-mer, flanks averaged, mean of replicates
Target sequence (chain): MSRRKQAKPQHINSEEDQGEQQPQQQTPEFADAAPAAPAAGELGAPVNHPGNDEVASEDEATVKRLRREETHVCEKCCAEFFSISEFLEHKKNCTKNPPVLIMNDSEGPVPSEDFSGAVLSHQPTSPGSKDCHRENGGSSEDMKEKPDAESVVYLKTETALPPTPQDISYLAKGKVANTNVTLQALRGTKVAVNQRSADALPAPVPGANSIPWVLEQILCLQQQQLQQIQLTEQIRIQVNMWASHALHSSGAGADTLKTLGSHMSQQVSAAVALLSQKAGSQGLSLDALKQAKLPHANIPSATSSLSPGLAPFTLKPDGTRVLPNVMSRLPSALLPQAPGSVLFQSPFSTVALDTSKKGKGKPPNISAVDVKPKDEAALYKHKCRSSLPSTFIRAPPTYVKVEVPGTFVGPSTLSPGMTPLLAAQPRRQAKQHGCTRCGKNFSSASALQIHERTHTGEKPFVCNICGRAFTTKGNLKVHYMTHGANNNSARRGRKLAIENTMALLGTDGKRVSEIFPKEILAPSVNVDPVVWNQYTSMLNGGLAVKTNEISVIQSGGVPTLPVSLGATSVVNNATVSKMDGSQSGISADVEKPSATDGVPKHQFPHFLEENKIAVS
Oligonucleotide	E-score
GCTGTCAC	-0.0268
GAGCGCGA	-0.173
ATATCTAG	0.257
CATATTGG	0.247
ATAAACCA	0.222
CGCTGATC	-0.189
CACATTTC	0.118
ACTCGACT	-0.0539
GCTGCACA	-0.251
CCACGCGG	-0.33
GCGGTTCC	-0.159
CCACCCCC	-0.202
CAGGCCAA	-0.263
GGCGACCA	-0.239
TAATGGTA	0.144
GGAGTATA	0.142
TAGGTTCA	0.065
CCAGATAC	-0.0565
AACCATCC	-0.0943
GATAGAGA	0.00129
GGGTTGTA	0.0865
AACCTAAT	0.0949
TACTTCAA	0.181
GGACGAAA	-0.136
AAGCTATG	0.0995

Study 2 — technique: protein binding microarray; form: double-stranded DNA, one strand shown; sample: in vitro; tested at: not given; reference: not given; direction: higher = stronger binding
Target: Histone acetyltransferase KAT6A, both winged helices, GST fusion (KAT6A, Homo sapiens, UniProt Q92794, residues 1-181)
Notes: 8-mer, flanks averaged, mean of 2 arrays, mostly near background
Residues (chain): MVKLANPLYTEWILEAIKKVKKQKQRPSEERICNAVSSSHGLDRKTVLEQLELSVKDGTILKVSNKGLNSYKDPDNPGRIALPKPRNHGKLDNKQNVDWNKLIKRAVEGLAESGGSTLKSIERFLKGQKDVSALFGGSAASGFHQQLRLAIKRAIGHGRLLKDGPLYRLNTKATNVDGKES
Oligonucleotide	E-score
GAGTCCGA	0.0585
CCTAAACG	0.091
TGTGTGAA	-0.073
ACCCTTTG	-0.119
GGAAGGGA	-0.0655
CTCATCCA	-0.196
CGGGTGTC	0.15
ATAATTAA	-0.0649
ACGCACAG	0.16
ATAGGCTC	-0.0572
ACAGCTAG	-0.116
AGTCAAGG	-0.194
AAGACTTG	-0.0308
ATATGGCG	0.147
ATGGACGA	0.0974
CACGGTAC	0.174
CAAAGAAG	-0.0274
GGGCAAGA	0.0291
CGTTCATC	0.0984
CACGACTA	-0.149
AGGCATGA	-0.172
AACGCACT	0.129
AGATTATC	-0.0688
AACACAGT	-0.152

Study 3 — technique: RNA Bind-n-Seq; form: RNA; sample: in vitro; tested at: 365 nM; reference: no-protein control; direction: higher = stronger binding
Target: RNA binding protein fox-1 homolog 2, RRM domain, GST-SBP tag (RBFOX2, Homo sapiens, UniProt O43251-10, residues 100-194)
Notes: natural RNA segment, single round, ends assumed
Shared flanks, not repeated: GGGAGUUCUACAGUCCGACGAUC … UGGAAUUCUCGGGUGCCAA
Residues (chain): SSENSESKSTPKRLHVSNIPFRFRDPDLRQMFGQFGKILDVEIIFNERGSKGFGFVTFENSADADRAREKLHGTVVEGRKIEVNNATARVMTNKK
Oligonucleotide	RBNS enrichment (R)
UGCUGCAGCCGGGGUUCUAUGGCAAGUGCCAGUUGCAGGGCUAACCUUGUGCAACGUUCCCCAACACUUCCACAUACAGAAAUUAUUUUCACUCUAUCCCUGCUUCAGUU	0.415
UGGUCUUGUUUCUUCAUAACUCACAAUCACUGGCUACCAAGAUAACCCUGAUGUAUUGAUUCCAUAAAUGCAUCACAUUCAGUUUUACCAUGUCUCCUUAGCAAACUUGU	0.449
ACCUUCCCUCUUCCGGAUCUGUUUUGGUCUGGACUAUGGGCUCAUCAGGCCCAGGAUCCCGGACCAAAGACUGAGAUGACCCUUCCAAUAAAAGGCCAUUUCGGACUCUG	0.286
CACAGUCUUAGGGGAAAUGUUUGUUAUGAUGUAAAUUUUAUUUGGUUUGUACGCAGUUCAAUUUCAAAAUUGCUAAAAUGUGUUUGAGCUUUAGACUAUAACAUUUGUUG	0.483
ACUUUCUUCACCCUGGGUCUGUUUCAAGCCGGCCAGAGAGCCUUUCCAAAGAGGAAUGAGGCCCAGGCCUUGGCUAUACGUACUUCCUGCCCCUGGCCAUCCUUGUUGGA	0.199
CCUAGGUGACAUUUUUAGAAUUAAUACUUAAAUGUUAAACAGGGGGAAAUGAAGCUUAAUCAUGGUCAGGUUUGAGAUCUUUUGCAGUGAAAUAAUUUUAUUUAAUAUAA	0.973
AGAGAGGAGCGCGCUUCCUUUCCUCCCCGCUGCCGCCCACCCUGGGGAGAGACUUUUGCGGGGAGGGAAGGCGGAGCUGAGGACAGCCAGCUCCGCCCUCCCAAGGCUGU	0.38
UGUUCCCCUCCUGUGUCCUUUUUCUCGUUCUUUCUUUCCUGUCCAGUGCAUGAUGUUUAAGGCCACAUAUAGUCCAGCUGAUGCCAAUAAUAAAAGACAAGAAACCAAGU	1.31
UAUUUUACACGCAGUUCGCCAAAUGGGAUUGCUCUGUAUAGUCAAAUUGGUGAUGGACAGAUGGACAGAAUGCAGAGGUACAUAGAUGAGCUGAGGCUGAUCCAGCUCCC	1.09
AUUUACUCCAGCAUCUAUUGUAUUUUAAAUUUCUACUCCAGUCCAAUGUAACUAUUUAGCCCUGGAUUAUACAUACUGUCCAAUUUUCAUUAAAUUUUUGUCUUAUAACU	0.857
AUCCCUAAAGAUACUUCCAACAUAUUGUUAGAGUAAGUAUUAAAAGAAAAAGUAGGUUUGCUGAAAAACAUUACUAAAUGACUUGGAGCUCUCCAGUCAAAGAAACAAAG	0.477
UUUUUAUUUUACAAAACAGAGAAACAACAAAAGGCUUGGAACUCCUUCAUUCUACGUGGAAUACUAGAUCCCGUUUGUUAGCCUUCGUGACUCCGUCCUUGUCUCCUGUA	0.82

Study 4 — technique: protein-binding microarray; form: double-stranded DNA, one strand shown; sample: in vitro; tested at: 2200 nM top; notes: 60-bp whole probe; with: salmon DNA 0.4 mg/ml; reference: random background probes; direction: higher = stronger binding; shared flanks, not repeated: GCCTAGCAC … GTCTTGATTCGCTTGACGCTGCTG
Target: Interferon regulatory factor 7, full length, phosphomimetic (IRF7, Homo sapiens, UniProt Q92985, residues 1-503, S471D/S472D/S475D/S476D/S477D/S483D/S484D/S487D)
Chain of UniProt Q92985 (whole entry, unmodified, looked up): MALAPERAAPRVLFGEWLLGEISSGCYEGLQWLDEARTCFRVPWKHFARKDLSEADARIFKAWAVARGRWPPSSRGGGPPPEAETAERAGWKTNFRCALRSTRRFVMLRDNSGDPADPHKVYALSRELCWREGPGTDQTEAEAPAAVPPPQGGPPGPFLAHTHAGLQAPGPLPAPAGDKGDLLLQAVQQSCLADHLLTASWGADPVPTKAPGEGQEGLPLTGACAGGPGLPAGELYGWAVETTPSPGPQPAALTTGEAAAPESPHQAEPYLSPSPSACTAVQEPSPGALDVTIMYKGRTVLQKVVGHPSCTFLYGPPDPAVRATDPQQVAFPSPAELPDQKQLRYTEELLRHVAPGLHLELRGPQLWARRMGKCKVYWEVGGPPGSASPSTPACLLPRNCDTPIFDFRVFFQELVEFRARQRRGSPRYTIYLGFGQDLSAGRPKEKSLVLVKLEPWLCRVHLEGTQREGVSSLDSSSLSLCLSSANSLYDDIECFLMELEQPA
Oligonucleotide	fitted relative affinity [z-score]
TTAAGTTTCCTTTCCCTTTAGTGCTAG	6.01
GACGGTTTCCTACTTCTGACGTGCTAG	2.43
GACGATCTCAGTCGCGAGACGTGCTAG	-0.115
TTAGGTCTCCTACTACTTTAGTGCTAG	0.695
GACGACCTCAGTTTCGAGACGTGCTAG	3.36
GAGGGTGTTCTTTTCTGTTGGTGCTAG	1.61
TCACCTTTTTTGTTGTTACTGTGCTAG	2.24
TCAAAATGATTGGTTGAACTGTGCTAG	-0.41
CTAGGACTGGGGACTGGGTTAGTGCTA	-1.26
TTAGGTCTACTTATCCTTTAGTGCTAG	0.696
GACGGTATCAGTATCGGGACGTGCTAG	0.154
TTAGATTCCAGTTTCGACTAGTGCTAG	4.11
TGAGCTACAGATGAGGCTCGGTGCTAG	-0.112
GACGGCCTGGGGTTTCGGGACGTGCTA	0.249
GACGATTTTAGTCTCGAGACGTGCTAG	0.496
GACGGTATGCTTTTCCTGACGTGCTAG	0.735
GACGGACTGCTTATCCCGACGTGCTAG	0.287

Repeated from above (study 3):
Oligonucleotide	RBNS enrichment (R)
UGCUGCAGCCGGGGUUCUAUGGCAAGUGCCAGUUGCAGGGCUAACCUUGUGCAACGUUCCCCAACACUUCCACAUACAGAAAUUAUUUUCACUCUAUCCCUGCUUCAGUU	0.415
UGGUCUUGUUUCUUCAUAACUCACAAUCACUGGCUACCAAGAUAACCCUGAUGUAUUGAUUCCAUAAAUGCAUCACAUUCAGUUUUACCAUGUCUCCUUAGCAAACUUGU	0.449
ACCUUCCCUCUUCCGGAUCUGUUUUGGUCUGGACUAUGGGCUCAUCAGGCCCAGGAUCCCGGACCAAAGACUGAGAUGACCCUUCCAAUAAAAGGCCAUUUCGGACUCUG	0.286
CACAGUCUUAGGGGAAAUGUUUGUUAUGAUGUAAAUUUUAUUUGGUUUGUACGCAGUUCAAUUUCAAAAUUGCUAAAAUGUGUUUGAGCUUUAGACUAUAACAUUUGUUG	0.483
ACUUUCUUCACCCUGGGUCUGUUUCAAGCCGGCCAGAGAGCCUUUCCAAAGAGGAAUGAGGCCCAGGCCUUGGCUAUACGUACUUCCUGCCCCUGGCCAUCCUUGUUGGA	0.199
CCUAGGUGACAUUUUUAGAAUUAAUACUUAAAUGUUAAACAGGGGGAAAUGAAGCUUAAUCAUGGUCAGGUUUGAGAUCUUUUGCAGUGAAAUAAUUUUAUUUAAUAUAA	0.973
AGAGAGGAGCGCGCUUCCUUUCCUCCCCGCUGCCGCCCACCCUGGGGAGAGACUUUUGCGGGGAGGGAAGGCGGAGCUGAGGACAGCCAGCUCCGCCCUCCCAAGGCUGU	0.38
UGUUCCCCUCCUGUGUCCUUUUUCUCGUUCUUUCUUUCCUGUCCAGUGCAUGAUGUUUAAGGCCACAUAUAGUCCAGCUGAUGCCAAUAAUAAAAGACAAGAAACCAAGU	1.31
UAUUUUACACGCAGUUCGCCAAAUGGGAUUGCUCUGUAUAGUCAAAUUGGUGAUGGACAGAUGGACAGAAUGCAGAGGUACAUAGAUGAGCUGAGGCUGAUCCAGCUCCC	1.09
AUUUACUCCAGCAUCUAUUGUAUUUUAAAUUUCUACUCCAGUCCAAUGUAACUAUUUAGCCCUGGAUUAUACAUACUGUCCAAUUUUCAUUAAAUUUUUGUCUUAUAACU	0.857
AUCCCUAAAGAUACUUCCAACAUAUUGUUAGAGUAAGUAUUAAAAGAAAAAGUAGGUUUGCUGAAAAACAUUACUAAAUGACUUGGAGCUCUCCAGUCAAAGAAACAAAG	0.477
